Measured values collected from several papers.
Each line is one published result; not all experiments were run side by side. Values joined by “and” are separate records of one study, mostly repeats; a detail may differ.
Target: 3-phosphoinositide-dependent protein kinase 1 (PDPK1, Homo sapiens, UniProt O15530)
One construct used (O15530 1-556): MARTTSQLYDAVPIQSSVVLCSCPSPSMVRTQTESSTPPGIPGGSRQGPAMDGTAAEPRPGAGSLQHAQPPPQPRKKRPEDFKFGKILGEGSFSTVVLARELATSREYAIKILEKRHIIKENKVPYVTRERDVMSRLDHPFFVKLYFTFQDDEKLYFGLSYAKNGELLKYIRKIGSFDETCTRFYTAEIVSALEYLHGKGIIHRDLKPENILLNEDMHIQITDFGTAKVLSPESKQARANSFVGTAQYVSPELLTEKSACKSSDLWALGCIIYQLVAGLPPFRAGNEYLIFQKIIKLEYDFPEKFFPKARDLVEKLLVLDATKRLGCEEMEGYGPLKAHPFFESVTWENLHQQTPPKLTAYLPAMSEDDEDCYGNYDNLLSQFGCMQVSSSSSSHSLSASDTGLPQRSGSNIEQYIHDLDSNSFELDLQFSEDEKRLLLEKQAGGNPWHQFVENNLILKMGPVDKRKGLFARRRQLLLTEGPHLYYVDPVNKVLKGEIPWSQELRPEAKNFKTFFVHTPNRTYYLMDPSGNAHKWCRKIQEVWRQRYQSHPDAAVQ

SMILES = CS(=O)(=O)Nc1cccc(-c2csc3cnc(Nc4ccc(N5CCN(CCCCCOc6cccc7c6C(=O)N(C6CCC(=O)NC6=O)C7=O)CC5)cc4)nc23)c1 (stereo not drawn); assay = probe labelling, inhibitor, KiNativ chemoproteomics; test system = MOLT-4; conditions = 1 µM; measurement = inhibition; value = -3.27%
SMILES = O=C(Cc1ccc(OCc2ccccc2)cc1)NC1(C(=O)O)CCN(C(=O)c2ccc(-c3cccc(Cl)c3)cc2)CC1; assay = enzyme activity, inhibitor; conditions = 10 µM; measurement = activity vs control; value = 106%
SMILES = CC(C)=CC1OC(C)(C)C2C=C3C(=O)C(Cl)=CC(O)C3C3C(O)C4OC4C(=O)C132 (stereo not drawn); assay = cell-free assay, competition with immobilised ligand; conditions = 10 µM; measurement = remaining binding; value = 100%
SMILES = COc1c(OCCCN2CCOCC2)ccc2c1N=C(NC(=O)c1cnc(N)nc1)N1CCN=C21; assay = kinase activity, inhibitor; conditions = 1 µM; how to read = relative to: untreated control; measurement = remaining activity; value = 105%
SMILES = CNC(=O)C[C@H](Cc1ccc(C#N)cc1)NC(=O)c1cc(-c2ccc(CN[C@H](C)c3ccc(C)cc3)o2)ccc1Cl; assay = enzyme activity, inhibitor; conditions = 1 µM; measurement = activity vs control; value = 90%
SMILES = NC(=O)C[C@H]1CCc2sc3ncnc(O[C@H]4CC[C@H](N5CCOCC5)CC4)c3c21; assay = enzyme activity, inhibitor; conditions = 10 µM; measurement = inhibition; value = 5%
SMILES = CNC(=O)C1CCN(c2cc(C)c(F)cc2NC(=O)c2ccc(-c3cc(O)ccc3C)c(C)c2)CC1; assay = binding, competition with immobilised ligand; conditions = 1 µM; measurement = remaining binding; value = 60%
SMILES = Cc1[nH]nc2c1N=C(c1ccccc1Cl)c1cnc(N3CCOCC3)cc1N2; assay = enzyme activity, inhibitor; conditions = 0.5 µM; measurement = inhibition; value = 78.4%
SMILES = CN1CCN(Cc2ccc(NC(=O)c3cccc(C#Cc4cnc(N)c5ncccc45)c3)cc2C(F)(F)F)CC1; assay = cell-free assay, competition with immobilised ligand; conditions = 50 nM; measurement = remaining binding; value = 100%
SMILES = Cc1nc2c(F)cc(-c3nc(Nc4ccc(CNC(=O)CCCCCCC(=O)NO)cc4)ncc3F)cc2n1C(C)C; assay = enzyme activity, inhibitor; conditions = 1 µM; measurement = inhibition; value = 68%
SMILES = C=CC(=O)Nc1cccc(-c2cnc3[nH]cc(C(=O)NC(C)(C)C)c3n2)c1; assay = kinase activity; conditions = 0.1 µM; measurement = inhibition; value = 17% and 6%
SMILES = Cc1cccc(O[C@H]2CCC[C@@H](C(C)CNCc3ccncc3)C2)c1 (relative stereo); assay = enzyme activity, inhibitor; conditions = 10 µM; measurement = inhibition; value = -9%
SMILES = COc1ccc(NC(=O)Nc2ccc3c(c2)C(=O)N(C(C)CO)CC(C)C(CN(C)Cc2ccc4c(c2)OCO4)O3)cc1 (stereo not drawn); assay = binding, competition with immobilised ligand; conditions = 10 µM; measurement = remaining binding; value = 48%
SMILES = Cc1cccc(-c2ccc3nc(NC(=O)C4CCCO4)nn3c2)c1 (stereo not drawn); assay = enzyme activity, Dundee kinase panel; conditions = 10 µM; measurement = remaining activity; value = 96%
SMILES = O=C=[N][Ru-4]123([n]4c5ccc(O)cc5c5c6c(c7cc(F)c[n+]1c7c54)C(=O)NC6=O)[S+]1CC[S+]2CC[S+]3CC1 (stereo not drawn); assay = enzyme activity; conditions = 100 nM, human enzyme, together with: 10 µM ATP; how to read = relative to: untreated; measurement = remaining activity; value = 24%
SMILES = c1ccc2c(Nc3cc(C4CCC4)[nH]n3)nc(Nc3ccc4nc[nH]c4c3)nc2c1; assay = enzyme activity, inhibitor; conditions = 0.25 µM; measurement = remaining activity; value = 56%
SMILES = COc1cc(Nc2nccc(-c3cnn4nc(OC)ccc34)n2)cc(C(F)(F)F)c1; assay = binding, competition with immobilised ligand; conditions = 1 µM; measurement = remaining binding; value = 96%
SMILES = C=CC(=O)N1CCCC(n2c(=O)c3ncccc3n(Cc3ccc(Oc4ccccc4)cc3)c2=O)C1 (stereo not drawn); assay = cell-free assay, competition with immobilised ligand; conditions = 1 µM; measurement = remaining binding; value = 100%
SMILES = C=CC(=O)N1CCc2ccc(-n3c(=O)ccc4cnc5ccc(-c6cnn(C)c6)cc5c43)cc21; assay = KINOMEscan; conditions = 1 µM; how to read = relative to: DMSO control; measurement = remaining binding; value = 94%
SMILES = C=C1CCCCCCCCCC(CO)C1=O (stereo not drawn); assay = cell-free assay, competition with immobilised ligand; conditions = 10 µM; measurement = remaining binding; value = 100%
SMILES = Nc1nc(Nc2ccccc2)sc1C(=O)c1ccccc1; assay = enzyme activity, inhibitor; conditions = 10 µM; measurement = remaining activity; value = 64%
SMILES = Cc1cccc(-c2ccc3nc(NC(=O)C4CCOCC4)nn3c2)c1; assay = enzyme activity, Dundee kinase panel; conditions = 10 µM; measurement = remaining activity; value = 103%
SMILES = Nc1ncc2c(n1)-c1c([nH]c3ccc(C4=CCOCC4)cc13)CCC2; assay = binding, competition with immobilised ligand; conditions = 1 µM; measurement = remaining binding; value = 100%
SMILES = CC(=O)N1c2ccc(-c3ccc(CNC(=O)c4cn5cc(-c6cnc(N)nc6)nc(N6CCOCC6)c5n4)cc3)cc2CC[C@@H]1C; assay = KINOMEscan; conditions = 10 µM; measurement = remaining binding; value = 96%
